Measurements gathered from unrelated publications.
Parts stem from different laboratories: compare values within a part only. Positions count from the first letter of the parent shown.

Block 1
Target: Interferon regulatory factor 7, full length, phosphomimetic (IRF7, Homo sapiens, UniProt Q92985, residues 1-503, S101K/S471D/S472D/S475D/S476D/S477D/S483D/S484D/S487D)
UniProt Q92985, sequence (whole entry, unmodified, looked up): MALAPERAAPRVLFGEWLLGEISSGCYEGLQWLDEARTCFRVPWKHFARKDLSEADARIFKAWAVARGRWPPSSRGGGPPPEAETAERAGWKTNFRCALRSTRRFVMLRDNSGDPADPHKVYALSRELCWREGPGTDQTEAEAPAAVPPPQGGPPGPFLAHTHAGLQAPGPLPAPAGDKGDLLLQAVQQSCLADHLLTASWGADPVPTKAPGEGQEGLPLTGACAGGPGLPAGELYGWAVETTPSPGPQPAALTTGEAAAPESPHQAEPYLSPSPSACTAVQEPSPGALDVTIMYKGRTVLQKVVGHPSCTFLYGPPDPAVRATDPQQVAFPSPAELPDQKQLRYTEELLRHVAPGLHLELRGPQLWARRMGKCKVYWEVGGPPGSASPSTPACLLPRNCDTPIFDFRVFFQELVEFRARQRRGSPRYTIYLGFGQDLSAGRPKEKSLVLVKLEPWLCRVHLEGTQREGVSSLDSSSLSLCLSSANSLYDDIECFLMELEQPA
Technique: protein-binding microarray
Form: double-stranded DNA, one strand shown
Matrix: in vitro
Concentration: 250 nM
Notes: 60-bp whole probe
With: salmon DNA 0.4 mg/ml
Relative to: random background probes
Reading: higher = stronger binding
Constant ends, left off below: GCCTAGCAC … GTCTTGATTCGCTTGACGCTGCTG
Strand | log fluorescence [z-score]
TCATTTTTACTTCGGGTACTGTGCTAG | 0.882
GACGGTCTCTGACTGGGGACGTGCTAG | -0.172
TTAGGTTCCAGTTTCGGTTAGTGCTAG | 9.17
TTAGACCTGAGACTGGATTAGTGCTAG | -0.346
GAATGAATGGACATTTCTTCGTGCTAG | -0.172
GACGGTCTCCTATTCCTGACGTGCTAG | 0.435
CTAGGTTCCGGTTTCGGTTAGTGCTAG | 11.2
TTAGGTATCGGTTTTGGTTAGTGCTAG | 4.92
TTTCCTCTTTCTTTGCTTCAGTGCTAG | 4.66
GCTGGGTTTTCTTGGCACAGGTGCTAG | -0.617
ATATATTCATATATATATGAGTGCTAG | 0.807
TCATTAATCACATATACAACTGTGCTA | 0.986
GACGGCATCGGTCTCGGGACGTGCTAG | -0.259
CTCTTTTTGCTTTCTTTTATGTGCTAG | 2.04
TTTTTTGTATTTTTGATAGAGTGCTAG | 0.947
GACGGACCGGACACTGGGGACGTGCTA | -0.796
GACGGACTGCTTCACCTGACGTGCTAG | -0.315
GACGGTTTCGGTTTTCGGGACGTGCTA | 13.9
CCCTGTGTTACTTTCTACTTGTGCTAG | 0.0899
TTAGGATTGCTTCTCCTTTAGTGCTAG | 0.458
GAGATTTTCATTATTGCTTCGTGCTAG | 0.795
TTAGGTTCCAGTTTCGATTAGTGCTAG | 9.59
GACGGTATCGGCCTCGGGACGTGCTAG | -0.433
TCACTTCTCCCTTTCAGTTTGTGCTAG | 1.81
TCACATATAATTTTGTCATCGTGCTAG | 0.504

Block 2
Target: UBE2S UBC core domain (UniProt Q16763)
Technique: yeast two-hybrid
Matrix: yeast
Notes: mostly zero background
Relative to: not given
Reading: higher = stronger interaction
B1: RNF11 RING domain (UniProt Q9Y3C5); chain RDGSEKKIRECVICMMDFVYGDPIRFLPCMHIYHLDCIDDWLMRSFTCPSCMEPVDAALLSS
B2: SHPRH RING domain (UniProt Q149N8); chain KTSGGVNPEPCPICARQLGKQWAVLTCGHCFCNECISIIIEQYSVGSHRSSIKCAICRQTTSHKEISY
B3: UBE4B RING domain (UniProt O95155); chain KNARAEIDYSDAPDEFRDPLMDTLMTDPVRLPSGTIMDRSIILRHLLNSPTDPFNRQTLTESMLEPVPELKEQIQAWMREKQNSDH
B4: MARCHF2 RING domain (UniProt Q9P0N8); chain RLLSTVIRALDTPSDGPFCRICHEGANGECLLSPCGCTGTLGAVHKSCLEKWLSSSNTSYCELCHTEFAVEKRPRPLTEWL
B5: NHLRC1 RING domain (UniProt Q6VVB1); chain MREAEISLLECKVCFEKFGHRQQRRPRNLSCGHVVCLACVAALAHPRTLALECPFCRRACRGCDTSD
B6: MDM2 RING domain (UniProt Q00987); chain TQDKEESVESSLPLNAIEPCVICQGRPKNGCIVHGKTGHLMACFTCAKKLKKRNKPCPVCRQPIQMIVLTYFP
B7: TRIM2 RING domain (UniProt Q9C040); chain VRQIDKQFLICSICLERYKNPKVLPCLHTFCERCLQNYIPAHSLTLSCPVCRQTSILPEKGV
B8: RNF115 RING domain (UniProt Q9Y4L5); chain TQEQVDMGLECPVCKEDYTVEEEVRQLPCNHFFHSSCIVPWLELHDTCPVCRKSLNGEDSTR
B9: TRIM68 RING domain (UniProt Q6AZZ1); chain LVEAIVEEVACPICMTFLREPMSIDCGHSFCHSCLSGLWEIPGESQNWGYTCPLCRAPVQPRNLRP
B10: TRIM34 RING domain (UniProt Q9BYJ4); chain ILLNVQEEVTCPICLELLTEPLSLDCGHSLCRACITVSNKEAVTSMGGKSSCPVCGISYSFEHLQA
B11: TRIM74 RING domain (UniProt Q86UV6); chain SLLELEDWLQCPICLEVFKESLMLQCGHSYCKGCLVSLSYHLDTKVRCPMCWQVVDGSSSLP
B12: TRIM32 RING domain (UniProt Q13049); chain NLDALREVLECPICMESFTEEQLRPKLLHCGHTICRQCLEKLLASSINGVRCPFCSKITRITSLTQ
Target sequence (chain): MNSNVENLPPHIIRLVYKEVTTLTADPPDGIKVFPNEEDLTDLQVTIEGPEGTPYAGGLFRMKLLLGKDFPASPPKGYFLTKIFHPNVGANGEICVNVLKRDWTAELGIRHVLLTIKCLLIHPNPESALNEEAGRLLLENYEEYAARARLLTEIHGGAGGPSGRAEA
Molecule | lacZ reporter activity
B1 (RNF11 RING domain) | 0
B2 (SHPRH RING domain) | 0
B3 (UBE4B RING domain) | 0
B4 (MARCHF2 RING domain) | 0
AAQLLEEKLTCAICLGLYQDPVTLPCGHNFCGACIRDWWDRCGKACPECREPFPDGAELR (TRIM65 RING domain (UniProt Q6PJ69)) | 0
B5 (NHLRC1 RING domain) | 0
B6 (MDM2 RING domain) | 0
B7 (TRIM2 RING domain) | 0
B8 (RNF115 RING domain) | 0
B9 (TRIM68 RING domain) | 0
B10 (TRIM34 RING domain) | 0
SNNDLASLFECPVCFDYVLPPILQCQSGHLVCSNCRPKLTCCPTCRGPLGSIRNLA (SIAH1 RING domain (UniProt Q8IUQ4)) | 0
B11 (TRIM74 RING domain) | 0
B12 (TRIM32 RING domain) | 0

Block 3
Target: Prothrombin, mature alpha-thrombin (F2, Homo sapiens, UniProt P00734)
Technique: aptamer microarray, sandwich
Form: DNA with 2'F-ANA
Matrix: in vitro
Concentration: 200 nM
Notes: whole 15-mer aptamer, many near background
With: Cy3 exosite-II aptamer, 400 nM
Reading: higher = stronger binding
Strand: GGTTGGTGTGGTTGG
Modification | mean fluorescence intensity
2'F-ANA at 3 6 10 11 12 13 15 | 490 a.u.
2'F-ANA at 2 5 6 7 8 11 12 15 | 120 a.u.
2'F-ANA at 1 2 3 9 14 | 81.5 a.u.
2'F-ANA at 1 2 3 4 7 9 10 11 15 | 58.4 a.u.
2'F-ANA at 1 3 4 5 9 12 13 | 72.8 a.u.
2'F-ANA at 1 2 4 5 8 12 13 | 78.6 a.u.
2'F-ANA at 2 3 4 5 6 8 9 10 11 13 14 15 | 55.2 a.u.
2'F-ANA at 1 3 4 5 6 7 8 9 10 13 | 98.6 a.u.
2'F-ANA at 2 4 5 6 7 10 11 13 14 15 | 51.3 a.u.
2'F-ANA at 7 8 10 11 15 | 197 a.u.
2'F-ANA at 2 3 4 5 8 11 13 14 | 48.1 a.u.
2'F-ANA at 1 3 5 7 8 10 12 14 15 | 49.1 a.u.
2'F-ANA at 1 2 5 8 10 12 14 | 65 a.u.
2'F-ANA at 1 7 10 11 14 | 46.9 a.u.
2'F-ANA at 2 4 5 6 7 11 12 13 | 80 a.u.
2'F-ANA at 2 5 6 7 9 10 12 | 51.7 a.u.
2'F-ANA at 1 2 4 7 8 11 12 14 | 64.3 a.u.
2'F-ANA at 1 6 7 9 10 12 14 15 | 58.4 a.u.
2'F-ANA at 7 9 11 12 13 15 | 650 a.u.
2'F-ANA at 3 4 8 10 | 295 a.u.

Block 4
Target: CCND1, cyclin fold, Cln2 fusion (human)
Technique: yeast growth competition, sequencing
Matrix: yeast
Notes: weak parent motif
Relative to: not given
Reading: higher = stronger binding
Parent: BRCA2 docking peptide (human); CKKRRALDFLSRL; partner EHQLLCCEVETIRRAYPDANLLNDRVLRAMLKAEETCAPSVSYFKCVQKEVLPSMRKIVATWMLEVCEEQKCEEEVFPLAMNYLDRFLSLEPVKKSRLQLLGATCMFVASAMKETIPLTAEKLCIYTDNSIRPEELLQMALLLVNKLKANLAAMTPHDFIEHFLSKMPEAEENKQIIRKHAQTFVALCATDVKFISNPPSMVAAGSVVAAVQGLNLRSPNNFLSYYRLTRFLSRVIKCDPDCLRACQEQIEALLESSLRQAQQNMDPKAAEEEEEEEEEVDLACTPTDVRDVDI
Change | normalised enrichment score
CKKRAALDFLSRL [R5A] | 0.842
CAKRRALDFLSRL [K2A] | 0.618
CKKRKALDFLSRL [R5K] | 0.631
CKKRRALDFLARL [S11A] | 0.923
CKKRRALDFLSRA [L13A] | 0.558
CKARRALDFLSRL [K3A] | 0.653
CKKRRALDLLSRL [F9L] | 0.806
CKKRAAADFLSRL [R5A L7A] | 0.558
CKKRRALDALSRL [F9A] | 0.346

Block 5
Target: ABI1, truncated, D143A, DHFR fusion (Arabidopsis thaliana)
Technique: DHFR PCA, deep sequencing
Matrix: yeast
Notes: methotrexate growth selection, single substitutions
With: (+)-ABA 58 µM
Relative to: wild-type fitted maximum
Reading: higher = stronger binding
Parent: PYL1, truncated, DHFR fusion (Arabidopsis thaliana); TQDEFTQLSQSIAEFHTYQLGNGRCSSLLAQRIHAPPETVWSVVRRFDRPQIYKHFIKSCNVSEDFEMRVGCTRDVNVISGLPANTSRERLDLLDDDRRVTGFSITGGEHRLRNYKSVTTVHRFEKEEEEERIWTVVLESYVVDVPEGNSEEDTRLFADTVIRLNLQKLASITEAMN
Change | relative binding score
P36N | 81.8%
I57P | -28.9%
G107W | 14.3%
L138T | 9.58%
C60T | 75.8%
V76I | 86.1%
I33H | 10.8%
L112G | 0.000704%
I12G | 9.51%
Y115A | 1.53%
F157H | -2.34%
E128V | 83.3%
A170N | 38%
V78M | 68%
E128C | 91.5%
D95N | 74.4%
D75T | 91%

Repeated from above (block 5):
Change | relative binding score
V76I | 86.1%
I33H | 10.8%
L112G | 0.000704%
I12G | 9.51%
Y115A | 1.53%
F157H | -2.34%
E128V | 83.3%
A170N | 38%
V78M | 68%
E128C | 91.5%
D95N | 74.4%
D75T | 91%
